# Measured values pooled from the literature.
# Values joined by “and” are separate records of one study, mostly repeats; a detail may differ. ± gives the spread as reported.
Structure (SMILES),cell line,assay,conditions,scale,endpoint,value
CC1(C)C[C@@H](Nc2cccc(-c3sc(C(=O)O)c(OCC(=O)O)c3Cl)c2)CCN1S(=O)(=O)Cc1cccc(NC(=O)CN2CCC(c3ccc4c(c3)oc(=O)n4C3CCC(=O)NC3=O)CC2)c1 (stereo partly shown),B16-F10,"HTRF, refers to: phospho-STAT1 Tyr701","1.1 µM, with: IFN-γ",relative to: min-max normalised,pSTAT1 level,78.6% and 81.3% and 82.1% and 78.8% and 80.8%
CC(C)(C)c1cc(-c2ccc3cccnc3n2)nc(-c2ccc3cccnc3n2)c1.[Cl-].[Cl-].[Ru+2].c1ccc2cc3nc4c5cccnc5c5ncccc5c4nc3cc2c1,B16-F10,resazurin,"with: light 633 nm, 100 J/cm2",relative to: dark EC50 over light EC50,phototoxicity index,4
C=CC(=O)N1[C@@H](c2ccc3c(c2)OCO3)c2[nH]c3ccccc3c2C[C@H]1C(=O)NC1CC1,rat DRG neurons,,"10 µM, 48 h, with: vincristine 40 nM",,neuron degeneration,16.7% and 17.5%
CC(=O)NCCCN(C)CCCNc1cccc2c1C(=O)c1cccc(NCCCN(C)CCCNC(C)=O)c1C2=O,SAS,"RNA-Seq, refers to: HSPA5 mRNA","1 µM, 6 h",relative to: untreated cells,log2 fold change,-0.435
CO[C@@H]1[C@@H](OC(N)=O)[C@@H](O)[C@H](Oc2ccc3c(O)c(NC(=O)c4ccc(O)c(CC=C(C)C)c4)c(=O)oc3c2C)OC1(C)C,HCT-116 BRCA2-/-,,"150 µM, replicate 2",,colony count,13
CNS(=O)(=O)Nc1nccc(Cc2c(C)c3ccc(Oc4ncccc4F)cc3oc2=O)c1F,Z-138,cell viability,7 days,,IC50,> 1 µM
COc1cc(N2CCN(C(=O)CCOCCNC(=O)[C@@H]3CCCN3)CC2)ccc1Nc1ncc(Cl)c(Nc2ccccc2P(C)(C)=O)n1,NCI-H3122,flow cytometry,"500 nM, 24 h",,G2 phase cells,9.5% and 8.99% and 10.3%
NC(=O)c1ccc(-c2ccccc2Cl)c2c3c([nH]c12)CC[C@@H](N)C3,MX1,cell growth or viability,,,IC50,0.0156 µM
CN1CCCNC(=O)c2cccc(c2)C(=O)NCCCN(C)CCCNc2cccc3c2C(=O)c2cccc(c2C3=O)NCCC1,SAS,"RNA-Seq, refers to: SMUG1 mRNA","1 µM, 6 h",relative to: untreated cells,log2 fold change,0.535
Cc1ncsc1-c1ccc(C(C)NC(=O)C2CC(O)CN2C(=O)C(NC(=O)CCCCCCCCCCN2CCCC(Nc3ncc(Cl)c(Nc4ccccc4S(=O)(=O)C(C)C)n3)C2)C(C)(C)C)cc1 (stereo not shown),22Rv1,"RNA-seq, refers to: THNSL1 mRNA",concentration not given,relative to: DMSO,log2 fold change,-1.06
CC(C)c1ccc(N(C)c2ccc3c(c2)OCC[C@H]3CNc2cnccc2C(=O)O)cc1,NCI-N87,"cell growth or viability, ATP luminescence",7 days,,IC50,0.00429 µM
[BH3-][P+]1(c2ccccc2)CCCCC1,SW-620,ELISA,"IC50, 72 h",,IL-6 level,2.1 ± 0.35 pg/mL
O=C(C[Se]C(=O)c1cc2ccccc2[nH]1)Nc1cccc(C(F)(F)F)c1,NCI60 breast subpanel,NCI60 five-dose screen,,,GI50,1.72 µM
CCN(CC)CC(=O)Nc1cccc(-n2cc(-c3ccc4ccc(-c5cn(-c6cccc(NC(=O)CN(CC)CC)c6)nn5)cc4c3)nn2)c1,RCC4,"PCR angiogenesis array, refers to: ANPEP","5 x IC50, 2 h, normoxia",relative to: untreated,fold regulation,-1.57
Cn1ncc2cc(-c3cncc(Cl)c3N3CCC4(CCNC4=O)CC3)ccc21,LS174T,"gene expression, microarray, refers to: NOD2 mRNA","concentration not given, 24 h",relative to: untreated cells,log2 fold change,3.38
CC(C)(C)c1cc(-c2ccc3cc4ccccc4nc3n2)nc(-c2ccc3cc4ccccc4nc3n2)c1.[Cl-].[Cl-].[Ru+2].c1ccc2cc3nc4c5cccnc5c5ncccc5c4nc3cc2c1,B16-F10,"photocytotoxicity, resazurin","visible light 400-700 nm, 20 mW, 100 J/cm2",,EC50,1.92 µM
COc1ccc(NC(=O)c2c(Nc3ccccc3)sc(C(=O)N/N=C/c3ccc(OC)c(OC)c3)c2NC(C)=O)cc1,HCT-116,"cell growth or viability, SRB","10 nM, 48 h",,viability,81.3%
COc1ccc(NC(=O)c2ccc3[nH]c(-c4ccc(N(C)C)cc4)nc3c2)cn1,HCT116,IncuCyte,"concentration not given, 18 h",,dead cell to confluence ratio,78.6 and 193 and 342
CC1(C)CC[C@@]2(CO)C(=C3C=C[C@@H]4[C@@]5(C)CC[C@H](O)[C@@](C)(CO)[C@@H]5CC[C@@]4(C)[C@]3(C)C[C@@H]2O)C1,"HepG2, SIRT1 siRNA","Western blot, refers to: mTOR","concentration not given, high dose, unit not given, with: ethanol",relative to: β-actin,protein level,1.2 and 0.707 and 0.696
Cc1c(Cl)cccc1Nc1ccccc1C(=O)[Se]CC(=O)Nc1cccc(C(F)(F)F)c1,NCI60 breast subpanel,NCI60 five-dose screen,,,GI50,1.95 µM
CCOc1cncc(-c2ccc(NC(=O)C3(c4ccnc(NS(=O)(=O)C5CC5)n4)CCOCC3)nc2)n1,NOMO-1,"cell proliferation, CellTiter-Glo",72 h,,IC50,0.611 µM
Cc1ccncc1.[Cl-].[Cl-].[Ru+2].c1cc(-c2ccc3cccnc3n2)nc(-c2ccc3cccnc3n2)c1.c1ccc2cc3nc4c5cccnc5c5ncccc5c4nc3cc2c1,B16-F10,cell viability,dark,,EC50,63.2 ± 1 µM
Cc1ccc(-n2cc(CSc3nc4ccccc4n3Cc3cn(-c4ccc(C)cc4)nn3)nn2)cc1,HEK293,MTT,125 ppm,,cytotoxicity,83.6%
COC1CN([C@H]2CC[C@H]([C@@]3(C)Oc4c(Cl)cc(C(=O)NCc5c(SC)cc(C)[nH]c5=O)c(C)c4O3)CC2)C1,RT-4,"cell growth or viability, ATP luminescence",18 days,,GI50,> 10 µM
CCN(C(=O)c1cc(F)ccc1Oc1nncnc1N1CCC2(C1)CN([C@H](CCCN(C)CCOC)C(C)C)C2)C(C)C,peripheral blood mononuclear cells,,72 h,,GI50,> 10 µM

# Repeated from above:
Structure (SMILES),cell line,assay,conditions,scale,endpoint,value
CC1(C)CC[C@@]2(CO)C(=C3C=C[C@@H]4[C@@]5(C)CC[C@H](O)[C@@](C)(CO)[C@@H]5CC[C@@]4(C)[C@]3(C)C[C@@H]2O)C1,"HepG2, SIRT1 siRNA","Western blot, refers to: mTOR","concentration not given, high dose, unit not given, with: ethanol",relative to: β-actin,protein level,1.2 and 0.707 and 0.696
Cc1c(Cl)cccc1Nc1ccccc1C(=O)[Se]CC(=O)Nc1cccc(C(F)(F)F)c1,NCI60 breast subpanel,NCI60 five-dose screen,,,GI50,1.95 µM
CCOc1cncc(-c2ccc(NC(=O)C3(c4ccnc(NS(=O)(=O)C5CC5)n4)CCOCC3)nc2)n1,NOMO-1,"cell proliferation, CellTiter-Glo",72 h,,IC50,0.611 µM
